Measurements gathered from unrelated publications.
Numbered parts are unrelated; each lists some results of a single study.

Block 1
Target: Interferon regulatory factor 5, full length, phosphomimetic (IRF5, Homo sapiens, UniProt Q13568-2, residues 1-514, K96S/S451D/S453D/S456D/S462D)
Technique: protein-binding microarray
Form: double-stranded DNA, one strand shown
Medium: in vitro
Tested at: 250 nM
Notes: 60-bp whole probe
Together with: salmon DNA 0.4 mg/ml
Relative to: random background probes
Reading: higher = stronger binding
Measurement: log fluorescence
Shared flanks, not repeated: GCCTAGCAC … GTCTTGATTCGCTTGACGCTGCTG
GACGGTATCGGGACTGGGGACGTGCTA: 1.13 z-score
TTCGGTTTCCTTTTCCTTTAGTGCTAG: 3.05 z-score
GACGGTATCGGGACTAGGGACGTGCTA: 1.17 z-score
TATTTTCTGAATGTCTTCCCGTGCTAG: 1.94 z-score
TGTGCTTTCCTGATGGTTCTGTGCTAG: 0.418 z-score
TCACAAGTTTCACGTCTTACTGTGCTA: 1.83 z-score
GACGGACTGAGGTTTCGGGACGTGCTA: 1.5 z-score
GACGATACCGGGTTTCGAGACGTGCTA: 2.26 z-score
TTAGATATCGGGTTTCGAATAGTGCTA: 4.23 z-score
TTAGGTATCGGGTTTCGGTCAGTGCTA: 8.46 z-score
TTAGGTATCCTACTGCTTTTGTGCTAG: 0.105 z-score
TTACGTATCCTTCTCCTTTAGTGCTAG: 1.04 z-score
TTAGGTCTCCTTTCCCTTTAGTGCTAG: 0.407 z-score
GAAGGTATCGACACTGGGGACGTGCTA: 1.44 z-score
GAAGGTATCGGGTTTCGGGACGTGCTA: 4.66 z-score
GAAGGACTGCTTCTCCTGACGTGCTAG: -0.244 z-score
GGACCGACCCCTCCATCCCTGTGCTAG: -0.924 z-score
TCACATTCCAATTCTTTTACTGTGCTA: 1.39 z-score
GACGAACTGAGTTTCGCGACGTGCTAG: 1 z-score
GACGGACGGGGTTTCGGGACGTGCTAG: 1.46 z-score
TTAGGTATCGGTTTCGTTTAGTGCTAG: 9.7 z-score
TCATTTTTGGTTTCTGGACTGTGCTAG: 3.66 z-score

Block 2
Target: Histone acetyltransferase KAT6A, both winged helices, GST fusion (KAT6A, Homo sapiens, UniProt Q92794, residues 1-181)
Technique: protein binding microarray
Form: double-stranded DNA, one strand shown
Medium: in vitro
Tested at: not given
Notes: 8-mer, flanks averaged, mean of 2 arrays, mostly near background
Relative to: not given
Reading: higher = stronger binding
Measurement: E-score
Target sequence (chain): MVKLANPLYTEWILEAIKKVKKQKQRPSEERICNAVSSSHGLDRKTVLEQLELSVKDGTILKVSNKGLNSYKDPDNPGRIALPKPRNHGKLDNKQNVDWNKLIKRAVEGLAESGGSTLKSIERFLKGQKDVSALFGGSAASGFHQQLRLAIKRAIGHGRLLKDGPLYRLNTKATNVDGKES
GATTTCCC: -0.00177
GGAGTCCC: -0.0179
GGCACTTA: 0.0518
CTGGGACA: -0.124
AGTTCCAG: -0.0521
GTGGGGTA: -0.0445
ACGATTAC: -0.0396
CTGGATAA: -0.0567
AGCGAATC: 0.0439
TAACATAA: -0.0212
CCATTGAC: -0.0548
ATCAGACA: -0.0446
CCCGGACC: -0.0397
CCCCCAAC: -0.152
TCCCATAA: -0.118
GCTTTGCA: -0.0769
CTAAGTAG: -0.253
CGCCCTAA: 0.0974
GGGATAGA: -0.0636
AGCCCTCA: -0.0971
CGCAATAA: 0.186
GAGACGGA: 0.114
CATTCTGA: -0.116
ACAAATGT: -0.139
AATCCGGG: 0.12

Block 3
Target: Centromere-binding protein 1, full length, N-terminal tag (CBF1, Saccharomyces cerevisiae, UniProt P17106, residues 1-351)
UniProt P17106, sequence (whole entry, looked up): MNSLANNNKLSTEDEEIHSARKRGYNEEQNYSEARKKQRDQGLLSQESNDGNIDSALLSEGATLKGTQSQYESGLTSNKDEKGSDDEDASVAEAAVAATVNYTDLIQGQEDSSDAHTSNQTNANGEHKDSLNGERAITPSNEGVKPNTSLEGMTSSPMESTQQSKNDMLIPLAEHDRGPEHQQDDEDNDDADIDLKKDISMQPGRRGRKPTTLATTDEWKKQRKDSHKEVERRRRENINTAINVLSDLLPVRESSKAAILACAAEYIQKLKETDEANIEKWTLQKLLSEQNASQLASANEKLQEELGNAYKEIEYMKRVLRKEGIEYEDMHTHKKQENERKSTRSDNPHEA
Technique: protein-binding microarray
Form: double-stranded DNA, one strand shown
Medium: in vitro
Tested at: 0.8 µM
Notes: whole 60-bp probe, no competitor
Reading: higher = stronger binding
Measurement: fluorescence intensity
CTAATGGAAGTTACAGGTGACATAAAATCTACTTTCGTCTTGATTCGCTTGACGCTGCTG: 764 a.u.
GAAAATGTACTTGCTGTCATGAGCTCCCTACTGTAGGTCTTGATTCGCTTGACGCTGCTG: 533 a.u.
CTACGATGGAAGTGACACCAAAAATTATTTTGTTTCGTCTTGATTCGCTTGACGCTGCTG: 528 a.u.
GAACTAGGAAAAGATGGTGACGCCGTTTATCTGTAGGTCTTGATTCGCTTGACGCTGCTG: 515 a.u.
GAAACAAATTTTGCTAGCGTGACTCTTTATTACTAGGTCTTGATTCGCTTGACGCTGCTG: 1090 a.u.
CTACATCTCTTCTTCATCACCACGATGTATCTTTTCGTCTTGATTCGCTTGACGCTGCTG: 573 a.u.
CCTAACTACTATACGCACGTATAATAGCTTCGTACAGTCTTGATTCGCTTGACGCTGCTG: 493 a.u.
GAAATACAATAATGGAAGGTGATGAAGCCGAAGTAGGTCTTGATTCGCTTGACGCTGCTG: 591 a.u.
CTATCCTTCTGTTCTGATGTATTAAAAACTATTTTCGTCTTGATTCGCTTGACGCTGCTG: 607 a.u.
GAACAATAAGAAAAACATCTGATGTTGACTTAATAGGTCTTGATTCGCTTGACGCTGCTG: 507 a.u.
CTAACATATATCACAGTCGTGATTGAATTAACATTCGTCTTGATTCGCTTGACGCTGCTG: 711 a.u.
TGTACGAAGCTATCGCACGCTCATATAGTAGTTAGGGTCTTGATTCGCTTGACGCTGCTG: 522 a.u.
GAAGGAGCGTACATAGGTGACATTTGATAAGGTTAGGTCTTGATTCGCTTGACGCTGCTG: 552 a.u.
GAAGCACTATAGCCGCACGTAAAAATAACTTAATAGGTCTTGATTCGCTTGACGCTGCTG: 512 a.u.
CTACTTTTTTTTTAATGCCTGACGTTGAAGAGCTTCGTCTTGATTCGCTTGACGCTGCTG: 534 a.u.
CTACTGCGCGTATTTCACGCAATCTATACATAATTCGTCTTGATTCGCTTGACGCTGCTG: 534 a.u.
CTAAAAAACCGCAATCACGTAACCGTGGCTTCCTTCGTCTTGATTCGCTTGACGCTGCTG: 542 a.u.

Block 4
Target: RNA binding protein fox-1 homolog 2, RRM domain, GST-SBP tag (RBFOX2, Homo sapiens, UniProt O43251-10, residues 100-194)
Technique: RNA Bind-n-Seq
Form: RNA
Medium: in vitro
Tested at: 365 nM
Notes: natural RNA segment, single round, ends assumed
Relative to: no-protein control
Reading: higher = stronger binding
Measurement: RBNS enrichment (R)
Residues (chain): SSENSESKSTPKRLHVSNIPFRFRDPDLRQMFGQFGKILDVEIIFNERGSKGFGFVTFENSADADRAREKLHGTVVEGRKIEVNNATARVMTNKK
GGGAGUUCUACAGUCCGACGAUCAAUGUAAAGGGGACAGCUCAGGGUUGUUUUGGAGCCUGUUUGACUUUGUAAUCUCUGCCUGUGAUUUUCUUUUCUAAAUGACGACUCCGUGUAACCACCUGGACUAAGUUUGGAAUUCUCGGGUGCCAA: 2.03
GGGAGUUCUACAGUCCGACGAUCAGUGCCCUCAGCUAGGGCACUAGCCCAGCACACCUCUUCUCGGCCCACCUGAGGCCCAGCCAUCGGGCCUGCCUGGGCCCGGGCCCAGCAGUGCUGGACUGAUUCUCCCAUGGAAUUCUCGGGUGCCAA: 0.271
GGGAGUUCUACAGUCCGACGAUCAUUGGUACCAGUAGAUCAGCUGCCUAGCGAGGGCAGGUUUCUUCUUUGCAUCUGUGUGGCUUGCUUCCAGUCUGGCCUGUCCUUUCCAGCUGCCUUUUGUCUAGCCUGCUUGGAAUUCUCGGGUGCCAA: 1.01
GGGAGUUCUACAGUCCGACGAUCUUAAGGCCAGACCAGGCUGAGUGUGACCCCUGAGGUAAACACUCCACUAAGCUGUGUCUUGUUCAUGCCCCCUGCUCAGUGAAAGGUGAGUCCCGAGACCAGUUGGGUACUGGAAUUCUCGGGUGCCAA: 1.28
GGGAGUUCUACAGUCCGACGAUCAGGACAACAGCAAGAUGAGCCUGUGCAUGAAGAACUCACGGGGCACUUCCCCACAAUGCUGCAUUACCGAUAGGACCUAGUGUUUACUACAGUGUAAAUGUUUAUAUGGAUGGAAUUCUCGGGUGCCAA: 10.5
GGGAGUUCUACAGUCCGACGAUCUCUUCUCUUAAUCGGAAUCGUGAUGGUGUUGGAUUAUUUCAAUGGUGGGGUUAAUAUAGCAUGUUAUCCUGUCUAUCUUUUAAAGAUUUCUGUAUAAGACUGUUGAGCAGUGGAAUUCUCGGGUGCCAA: 3.03
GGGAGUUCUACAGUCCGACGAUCGGCCCUCCAGGCCAAGAGUCUCAGCUGGCCGAGAGUCCAGGCCUUGCCUCCCCCGACCGCCAUGGAGGGGGCAGCCCGGCACAGCUGCUGGGAGCCCUUGUGUGUCUGGUUGGAAUUCUCGGGUGCCAA: 0.581
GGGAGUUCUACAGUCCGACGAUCAUUUAAGUUUUCAGAGGUAAGUCUGUUGUUCUGAUUAAUCUGCAUUCAUUCAGCGAAUGCUCAAGACAAGCCAGGCAUGCUGAGAAGCGGCGCUCUAGUUGUAUGUAAGAUGGAAUUCUCGGGUGCCAA: 0.536
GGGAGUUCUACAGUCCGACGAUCAUGAUCUGUUUUUAGCUGGAUGGUCUUUAUUACAAAGUAUUAGAUUUUUCUUCUAUUUAACGGAAAACUUGACUUUGGUGAAUGUGCAUUACUUCCUUUUAUUUUGCUCUUGGAAUUCUCGGGUGCCAA: 0.697
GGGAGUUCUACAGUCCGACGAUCUUUUUACUUACUACUGAAGGAUCUCAGAUGUAAAAUUAUGUAUUUGGUUUGAGAUGGCCACUUAUUGUCCUUAAAAAUCCAUACUGAUAUAUGCAGUCAUUUUGAAUUGGUGGAAUUCUCGGGUGCCAA: 0.382
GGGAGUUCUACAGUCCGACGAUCAGAUGGAAAGAGAUGAGCCUAAGGAUACCAGGUUCAAAACGGUUAUGACCAUACACACAGGCAUUUUACCUUAUGGAAGAGGAGACAGUUGUUCAUGGAAUUGAUGGGGGUGGAAUUCUCGGGUGCCAA: 0.557
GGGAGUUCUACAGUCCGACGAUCCUGCAAAGCUUCUCUCAAGUUCCUUAAUCCUUGAGAAUCUUAAGAGGCUUGCUGGCUGGUGAAAAAGAAAUACAUCCCUCCCUCCAUCACCAUGUGGGGAUGCAGGAAAUUGGAAUUCUCGGGUGCCAA: 0.207

Some of these lines once more (block 2):
ACGATTAC: -0.0396
CTGGATAA: -0.0567
AGCGAATC: 0.0439
TAACATAA: -0.0212
CCATTGAC: -0.0548
ATCAGACA: -0.0446
CCCGGACC: -0.0397
CCCCCAAC: -0.152
TCCCATAA: -0.118
GCTTTGCA: -0.0769
CTAAGTAG: -0.253
